# Assay results collected from several papers.
# Numbered parts are unrelated; each lists some results of a single study.

# Sample 1
# Target: RING finger protein unkempt homolog, zinc fingers 1-6, GST-SBP tag (UNK, Homo sapiens, UniProt Q9C0B0, residues 30-357)
# Method: RNA Bind-n-Seq
# Form: RNA
# Sample: in vitro
# Tested at: not given
# Notes: RNA with constant flanks, human and mouse sites, ends assumed
# Baseline: input RNA pool
# Reading: higher = stronger binding
# Construct (chain): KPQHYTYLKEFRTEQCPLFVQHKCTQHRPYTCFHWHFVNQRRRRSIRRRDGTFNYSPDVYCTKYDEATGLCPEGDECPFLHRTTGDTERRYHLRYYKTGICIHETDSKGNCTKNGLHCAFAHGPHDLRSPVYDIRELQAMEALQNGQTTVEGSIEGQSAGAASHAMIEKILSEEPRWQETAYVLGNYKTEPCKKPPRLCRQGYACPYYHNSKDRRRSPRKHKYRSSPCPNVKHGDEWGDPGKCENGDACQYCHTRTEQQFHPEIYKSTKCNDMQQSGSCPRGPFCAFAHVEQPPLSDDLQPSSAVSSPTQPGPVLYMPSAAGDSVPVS
Strand,bound/input enrichment [ratio]
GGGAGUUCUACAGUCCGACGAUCCCAGUGAGUCAUCCGUCCAGAAGGCGGGGAGAGCAGCAGCGGCCCAAGCAGGAGCUGCAGCGAGCCGGGUACCUGGACUCAGCGGUAGCAACCUCGCCCCUUGCAACAAAGGCAGACUGACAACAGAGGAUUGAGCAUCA,0.0972
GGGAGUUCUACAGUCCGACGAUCUUUAAUUUAAUGCUGUAGAGGGUGACUUGCCAUCGUGAGAGAUUGGUACAUGAUGUGUAAAUUCAGUUCAGCAUAUGUUUCUUCAUUAUGAAACCACUAGCAAUCCCAGCUAACCAUGGACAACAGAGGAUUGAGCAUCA,0.36
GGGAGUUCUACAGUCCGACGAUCAAAGCAAUUGAGCAGGCCGAUCUCCUGCAGGAGGAUGCAAAAGAAGCUGAAACCCCACGUAGUGUUCUUGAAGAAAUUGGACUGACAUAACUGUCCUCCCUUGCUGAUGACUUCUUGUGGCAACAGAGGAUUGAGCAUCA,0.217
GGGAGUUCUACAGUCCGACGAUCAGGCCGUGCUGCUGGCGUCACUUUCUUUGAUAUGUAGCUUUUUCUUAAAGACUUUUGAAUGUUUAAUAAUUUUGUAAAUCAUGCUCUUUACACAGAGUACCACUUAUUUAAUAAGACGGGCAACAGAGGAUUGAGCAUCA,8.27
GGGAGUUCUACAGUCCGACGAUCUGUAAGCUGCCAAGACUGUCUCUGAAUGGAGUCCGGUUUAAGCGGAUAUCAGGGACAUCCAUAGCUUUCAAAAAUAUUGCUUCCAAAAUUGCCAAUGAGCUAAAGCUGUAACCCAGUAAUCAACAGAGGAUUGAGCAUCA,0.85
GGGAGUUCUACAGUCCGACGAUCCCAUGGGGAUGCUCUGGGGAGUGGCUGGACACUCAGCAUUGCUUCAUUUAUGACUUUGACAAUAGAUAGGCUUCUGGGGGUUUUUGUUUCUGUUUUUUUAAUUUAAUGAUAUUAAAACUUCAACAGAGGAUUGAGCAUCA,0.703
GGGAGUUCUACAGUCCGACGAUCUCCGCACUGGAGAACAUGCUUUUUUUCAACAGUCCUUCUGUGGGCCCCAAUGCUCCCAAGAUAGAGGACUUGAAAUGGCAUUCUGCAUUCUUCAGGAAACAAAUGGGCACUUCCUUGGUUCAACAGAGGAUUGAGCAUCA,0.159
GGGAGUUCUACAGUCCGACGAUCGGCGAAGCAGCUCCAUCUCAGAAUACAGAAAGCUACGGAGUCCCUGAAGAGCUUUAGACCUGCAGCCCAGGCUUCUUUUGAAGACUAUGUUGUUAACAUAUCGAAACAAACAGAGGUGCUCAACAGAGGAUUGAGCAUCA,0.252

# Sample 2
# Target: Ras GTPase-activating protein-binding protein 1, RRM domain (G3BP1, Homo sapiens, UniProt Q13283)
# Chain of UniProt Q13283 (whole entry, looked up): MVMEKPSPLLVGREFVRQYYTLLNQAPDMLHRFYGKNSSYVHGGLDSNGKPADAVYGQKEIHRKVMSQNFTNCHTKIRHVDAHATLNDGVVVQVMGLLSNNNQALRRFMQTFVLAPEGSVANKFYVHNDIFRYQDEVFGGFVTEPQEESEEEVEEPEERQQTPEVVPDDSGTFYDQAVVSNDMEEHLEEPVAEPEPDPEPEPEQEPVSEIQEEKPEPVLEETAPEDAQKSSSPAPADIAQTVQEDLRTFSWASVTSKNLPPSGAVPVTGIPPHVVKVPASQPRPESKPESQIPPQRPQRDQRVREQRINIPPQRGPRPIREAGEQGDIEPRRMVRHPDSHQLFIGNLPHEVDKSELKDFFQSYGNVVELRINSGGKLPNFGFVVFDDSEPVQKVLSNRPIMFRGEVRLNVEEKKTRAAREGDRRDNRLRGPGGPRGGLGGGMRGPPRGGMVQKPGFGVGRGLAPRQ
# Method: RNA Bind-n-Seq
# Form: RNA
# Sample: in vitro
# Tested at: 1 µM
# Notes: whole 134-nt RNA, ends assumed
# With: 150 mM KCl
# Baseline: input library
# Reading: higher = stronger binding
Strand,log2 enrichment
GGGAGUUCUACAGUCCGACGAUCAGUCCUGUGCUACACAUCGUAUGUACCGAAUCGGGAAAAGGAAAAGGGGAAAAGGGGAAAGUAUUAUGUUACGCCGUUCGGAUCUGCACUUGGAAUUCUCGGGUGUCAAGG,0.148
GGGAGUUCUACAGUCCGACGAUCGCAGGUAGUAAAAACAAAUGGAAAUGCUUCGGAUAGUGGCAGGGGUGGGGGUUGCUAAGGAAAGGGUGGGAUGGGAGUGGGUAAAGAGUUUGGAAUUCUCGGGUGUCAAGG,1.14
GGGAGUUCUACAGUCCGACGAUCAGUCCUGUGCUACACAUCGUAUGUACCGAAUCGGGGCCCCGGGCCCCGGGCCCCGGGGAAAGUAUUAUGUUACGCCGUUCGGAUCUGCACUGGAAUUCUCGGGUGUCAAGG,-0.979
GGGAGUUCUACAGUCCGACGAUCCACAGACAACACGCACCCACACAGACACAGAGAGAAGGGGUUGGGAUGGGGACAGGGUGCACAGCAGGGCGGGGUAGGACCCCAGCCCCUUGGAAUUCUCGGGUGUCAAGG,0.0402
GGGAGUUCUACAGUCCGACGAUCCACAGACAACACGCCCCCACACAGACACAGAGGGAAGGGGUUGGGAUGGGGACAGGGUGCACAGCAGGGCGGGGUAGGACCCCAGCCCCUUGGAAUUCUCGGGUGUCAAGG,-0.119
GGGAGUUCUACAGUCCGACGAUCUUCCUCAAGUCCUGUGCUACACAUCGUAUGUACCGAAUCGUGUGUGUGUGUAAAGUAUUAUGUUACGCCGUUCGGAUCUGCACUUCCAGCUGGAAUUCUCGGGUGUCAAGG,-0.109
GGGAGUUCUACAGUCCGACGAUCCCUCAAGUCCUGUGCUACACAUCGUAUGUACCGAAUCGGGAAGGAAGGAAGGGAAAGUAUUAUGUUACGCCGUUCGGAUCUGCACUUCCAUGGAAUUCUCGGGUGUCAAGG,-0.264
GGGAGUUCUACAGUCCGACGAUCCACAGACAACACGCACCCACACAGACACAGAGGGAAGGGGUUGUGAUGGGGACAGGGUGCACAGCAGGGCGGGGUAGGACCCCAGCCCCUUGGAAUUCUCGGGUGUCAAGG,-0.153
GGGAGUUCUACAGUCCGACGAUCGUCCUGUGCUACACAUCGUAUGUACCGAAUCAAACCCCCAAAUUUUUUUAAAUUUAAAAAAGUAUUAUGUUACGCCGUUCGGAUCUGCACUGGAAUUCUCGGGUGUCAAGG,-0.678

# Sample 3
# Target: Histone acetyltransferase KAT6A, both winged helices, GST fusion (KAT6A, Homo sapiens, UniProt Q92794, residues 1-181)
# Method: protein binding microarray
# Form: double-stranded DNA, one strand shown
# Sample: in vitro
# Tested at: not given
# Notes: 8-mer, flanks averaged, mean of 2 arrays, mostly near background
# Baseline: not given
# Reading: higher = stronger binding
# Construct (chain): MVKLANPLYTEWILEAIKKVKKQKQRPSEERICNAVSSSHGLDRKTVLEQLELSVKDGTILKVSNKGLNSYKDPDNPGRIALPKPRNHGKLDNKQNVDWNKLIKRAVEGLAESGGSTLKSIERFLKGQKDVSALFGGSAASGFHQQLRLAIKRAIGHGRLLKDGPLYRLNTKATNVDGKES
Strand,E-score
ATATCGGA,0.0188
TAAAGACA,-0.0753
ATGGAGAG,-0.232
GACAAACA,0.024
AAATGCCA,-0.263
ATCGGCGA,0.23
CACTTTAA,-0.11
CAGCTGTC,-0.15
AGGGAAAC,-0.0426
ACAAACTC,-0.0639
ATTATTAC,0.0377
CCCGTGAG,0.198
ACCCGCGG,0.372
CTTACTAC,-0.0846
CGTCATCC,0.135
AGGTGGAT,-0.209
GCGCCACC,0.141
ATAAGAAT,-0.0431
ACTCTAGC,0.0227
GGCCACTA,-0.0476
ACGCGATC,0.171
GGAGGTAC,-0.0603
CCAATGGG,-0.0964
GGAATGAC,0.0256

# Sample 4
# Target: RNA binding protein fox-1 homolog 2, RRM domain, GST-SBP tag (RBFOX2, Homo sapiens, UniProt O43251-10, residues 100-194)
# Method: RNA Bind-n-Seq
# Form: RNA
# Sample: in vitro
# Tested at: 365 nM
# Notes: natural RNA segment, single round, ends assumed
# Baseline: no-protein control
# Reading: higher = stronger binding
# Target sequence (chain): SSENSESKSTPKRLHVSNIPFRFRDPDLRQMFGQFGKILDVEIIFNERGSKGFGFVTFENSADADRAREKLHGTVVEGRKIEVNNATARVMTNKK
Strand,RBNS enrichment (R)
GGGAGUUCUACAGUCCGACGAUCAAGCACUGGUACCCACUGUGGGGCAAACCUGUGCUGCAGGAGGGAGCCUGGCAUACACACUCUGCAUGUUACUUCUUGAGAACUAGACCUGUGUGCCUGUGUUUUCCUGAUGGAAUUCUCGGGUGCCAA,2.39
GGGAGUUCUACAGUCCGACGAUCAUUUAAUGCACUGCCCAGAAAGAGCCAUGUGUAAGAGUUGUUCUCUGUUUGAGGAACUAACUACAUGGAAAAGACUUCUGACUUAAACCCAUGAAAUACUUCAUCUUGAGUGGAAUUCUCGGGUGCCAA,0.331
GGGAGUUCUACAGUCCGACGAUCUGCUUGAAUACAAGUGGCUAAGCCAACAACAGAAUAAAUACUUUUAUAGUAGUUUUAUAAUCCUGAAAUUCGAAAGCUUUCCCAAUUGCACUUGCAUCUAAACAAAACUGUGGAAUUCUCGGGUGCCAA,0.617
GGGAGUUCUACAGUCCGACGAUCACUCUUGGCGGAUCGGUCCAGUGGGUAGAGGGUUUGAUCAACAGAGCCUCACCCUCUCCACCUUUCAGCCUCCAGAGACUUUGGGGAGGGGGUUAAUCAACCCCGCGUGUUGGAAUUCUCGGGUGCCAA,0.181
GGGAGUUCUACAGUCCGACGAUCGACCCCAUGCUGAGUGGCCAGUGGGGAGCGGCGCCCGGCAGGCUCUUCUGGGGUCGUCUGUCCUAUCCGUGGAUUGUAUAUACUCUUCUCUGUUAAGGAGUUUUUCCCAAUGGAAUUCUCGGGUGCCAA,0.469
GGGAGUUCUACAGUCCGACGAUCAGGUGGAGACUACAAGGAGACUGGGCGAACCACACCGUCUCCCUGCAUGGCCUUCCCUUCCUCUAGACAGAGGAGGGCUCCCAGCAGCCUUUCUAGUUUGGCAGUGCGACUGGAAUUCUCGGGUGCCAA,0.539
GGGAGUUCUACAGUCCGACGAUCCUCCAAACAUAUAUUCUGUGAGAUAACUGUGCCUGCUACCAAGUGUUAAUCCUGGGAUCGUAUUUUUAUAUCAUAUUCACAUAUUUGUUUUUUUAAUUGGUGUUAGAUGAUGGAAUUCUCGGGUGCCAA,0.462
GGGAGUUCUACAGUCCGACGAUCAGCCCUUUAAGGAAAAGAUCAGUGUCCUGCACCCCUGGGGCAAAUGACAAGGGUAUUAUCAUGGAGUUCUGCCUAUUCCUACUGGUGUCCACCAGUCACACAUUUGGAAUUGGAAUUCUCGGGUGCCAA,0.345

# Some of these lines once more (sample 4):
Strand,RBNS enrichment (R)
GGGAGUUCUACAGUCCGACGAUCUGCUUGAAUACAAGUGGCUAAGCCAACAACAGAAUAAAUACUUUUAUAGUAGUUUUAUAAUCCUGAAAUUCGAAAGCUUUCCCAAUUGCACUUGCAUCUAAACAAAACUGUGGAAUUCUCGGGUGCCAA,0.617
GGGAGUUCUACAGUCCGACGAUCACUCUUGGCGGAUCGGUCCAGUGGGUAGAGGGUUUGAUCAACAGAGCCUCACCCUCUCCACCUUUCAGCCUCCAGAGACUUUGGGGAGGGGGUUAAUCAACCCCGCGUGUUGGAAUUCUCGGGUGCCAA,0.181
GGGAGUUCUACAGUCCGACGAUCGACCCCAUGCUGAGUGGCCAGUGGGGAGCGGCGCCCGGCAGGCUCUUCUGGGGUCGUCUGUCCUAUCCGUGGAUUGUAUAUACUCUUCUCUGUUAAGGAGUUUUUCCCAAUGGAAUUCUCGGGUGCCAA,0.469
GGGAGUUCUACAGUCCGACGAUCAGGUGGAGACUACAAGGAGACUGGGCGAACCACACCGUCUCCCUGCAUGGCCUUCCCUUCCUCUAGACAGAGGAGGGCUCCCAGCAGCCUUUCUAGUUUGGCAGUGCGACUGGAAUUCUCGGGUGCCAA,0.539
